Results gathered from unrelated publications.
Numbers after ± are the reported error.

CN[C@H](CC(C)C)C(=O)N[C@H]1C(=O)N[C@@H](CC(N)=O)C(=O)N[C@H]2C(=O)N[C@H]3C(=O)N[C@H](C(=O)N[C@H](C(=O)O)c4cc(O)cc(O)c4-c4cc3ccc4O)[C@H](O)c3ccc(c(Cl)c3)Oc3cc2cc(c3O[C@@H]2O[C@H](CO)[C@@H](O)[C@H](O)[C@H]2O[C@H]2C[C@](C)(N)[C@H](O)[C@H](C)O2)Oc2ccc(cc2Cl)[C@H]1O — half-life (mass spectrometry; male C57BL/6J mouse, plasma; intravenous bolus, 35 mg/kg): ~1.86 h
NCc1cc2c(cc1F)C(=O)N(C1CCC(=O)NC1=O)C2 (stereo not shown) — half-life (male CD-1 mouse, whole blood): > 3 h
O=c1c2cc(Cl)c(CO)cc2[nH]c(=S)n1Cc1cccnc1 — half-life (mouse, plasma; intravenous): 0.75 h
CN1CCCC1CCNS(=O)(=O)c1ccc2c(c1)CN(CC1CCCCC1)CC2 (stereo not shown) — half-life (mouse, plasma; oral, 10 mg/kg): 5 h
Fc1ccc(-c2nc3cc(F)ccn3c2-c2ccncc2)cc1 — half-life (CD1 mouse female; oral, 25 mg/kg): 10.1 h
Nc1nnc(-c2ccccc2O)cc1N1CCN(Cc2ccc(OCCOCCNc3cccc4c3C(=O)N(C3CCC(=O)NC3=O)C4=O)c(F)c2)CC1 (stereo not shown) — half-life (mouse, plasma; intraperitoneal, 50 mg/kg single dose, with: ritonavir 12.5 mg/kg): ~5 h
CCC/C(=C\C1=C(OC)C(=O)c2ccccc2C1=O)C(=O)N(CC)CC — half-life (mouse, male, eye; intravitreal, 10 µM): 1.11 h
N[C@@H](C[18F])C(=O)O — half-life (PET; athymic nude mouse, blood; intravenous): 0.0132 h
CCOC(=O)C1=C(CN2CCC[C@@H]2C(=O)Nc2ccc(B(O)O)cc2)NC(c2nccs2)=N[C@H]1c1ccc(F)cc1Br — half-life (ICR mouse, plasma; intravenous, 2 mg/kg): 1.95 ± 0.16 h
O=C(O)C[C@H](O)C[C@H](O)/C=C/c1c(C2CC2)nc2ccccc2c1-c1ccc(F)cc1 — half-life (FVB wild-type mouse, plasma; oral, 5 mg/kg): 3.1 h
O=C(O)Cc1ccccc1Nc1c(Cl)cccc1Cl — half-life (mouse CD-1, liver microsomes; 1 µM, pH 7.4): 0.197 h
N#Cc1ccc2c(-c3ccncc3)c(-c3ccc(F)cc3)nn2c1 — half-life (CD1 mouse, female; intravenous, 5 mg/kg): 3.45 h
Cc1ncccc1-c1cnc(NCc2c(F)ccc3c2CCO3)n2cnnc12 — half-life (female CB17 SCID mouse, HT-1376 xenograft, plasma; 75 mg/kg, day 1): 1.18 h
